Experimental data gathered from unrelated publications.
Each numbered part is a random draw from the data of one study; scales do not carry over between parts.

Series 1 — technique: RNA Bind-n-Seq; form: RNA; medium: in vitro; concentration: 1 µM; notes: whole 134-nt RNA, ends assumed; together with: 150 mM KCl; relative to: input library; direction: higher = stronger binding; quantity: log2 enrichment
Target: Ras GTPase-activating protein-binding protein 1, RRM domain (G3BP1, Homo sapiens, UniProt Q13283)
Sequence of UniProt Q13283 (whole entry, looked up): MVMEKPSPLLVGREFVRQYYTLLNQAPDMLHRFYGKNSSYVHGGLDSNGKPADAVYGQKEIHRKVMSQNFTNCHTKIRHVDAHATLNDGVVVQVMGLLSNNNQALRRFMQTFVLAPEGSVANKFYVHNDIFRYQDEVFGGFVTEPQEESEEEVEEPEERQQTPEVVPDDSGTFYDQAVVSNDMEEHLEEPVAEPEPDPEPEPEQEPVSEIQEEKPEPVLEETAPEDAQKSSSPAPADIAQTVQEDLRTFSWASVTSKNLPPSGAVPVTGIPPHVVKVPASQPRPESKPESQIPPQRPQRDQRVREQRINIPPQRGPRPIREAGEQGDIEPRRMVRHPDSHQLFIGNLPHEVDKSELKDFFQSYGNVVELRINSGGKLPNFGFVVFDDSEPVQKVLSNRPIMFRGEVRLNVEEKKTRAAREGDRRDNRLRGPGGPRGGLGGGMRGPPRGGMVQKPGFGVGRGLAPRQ
Constant ends, left off below: GGGAGUUCUACAGUCCGACGAUC … UGGAAUUCUCGGGUGUCAAGG
UCCUGUGCUACACAUCGUAUGUACCGAAUCGGAAAAAAGGAAAAAAGGGAAAAAAGGGGAAAGUAUUAUGUUACGCCGUUCGGAUCUGCA: 0.0107
AGCAUGCAGGUGGGCAUCUUUGGGAAGUGGGGCAAGGGGGGGAUAGGGAGGGGGGUAACACUUUGGGAACAGGUGGUCCCAGGUCGUUUC: -0.566
CUGUGCUACACAUCGUAUGUACCGAAUCGGCCCCCCCGGGGCCCCCCCGGGGCCCCCCCGGAAAGUAUUAUGUUACGCCGUUCGGAUCUG: -0.519
GCAGGAAGUAAAAACAAAUGGAAAUGCUUCGGAUAGUGGCAGGGGUGGCGGUUGCUAAGGAAAGGGUGGGAUGGGAGUGGGUAAAGAGUU: 1.18
AGUCCUGUGCUACACAUCGUAUGUACCGAAUCGGGUUUUGGUUUUGGGGUUUUGGGGAAAGUAUUAUGUUACGCCGUUCGGAUCUGCACU: -0.0112

Series 2 — technique: protein-binding microarray; form: double-stranded DNA, one strand shown; medium: in vitro; concentration: 250 nM; notes: 60-bp whole probe; together with: salmon DNA 0.4 mg/ml; relative to: random background probes; direction: higher = stronger binding; quantity: log fluorescence; constant ends, left off below: GCCTAGCAC … GTCTTGATTCGCTTGACGCTGCTG
Target: Interferon regulatory factor 7, full length, phosphomimetic (IRF7, Homo sapiens, UniProt Q92985, residues 1-503, S101K/S471D/S472D/S475D/S476D/S477D/S483D/S484D/S487D)
Target sequence (chain): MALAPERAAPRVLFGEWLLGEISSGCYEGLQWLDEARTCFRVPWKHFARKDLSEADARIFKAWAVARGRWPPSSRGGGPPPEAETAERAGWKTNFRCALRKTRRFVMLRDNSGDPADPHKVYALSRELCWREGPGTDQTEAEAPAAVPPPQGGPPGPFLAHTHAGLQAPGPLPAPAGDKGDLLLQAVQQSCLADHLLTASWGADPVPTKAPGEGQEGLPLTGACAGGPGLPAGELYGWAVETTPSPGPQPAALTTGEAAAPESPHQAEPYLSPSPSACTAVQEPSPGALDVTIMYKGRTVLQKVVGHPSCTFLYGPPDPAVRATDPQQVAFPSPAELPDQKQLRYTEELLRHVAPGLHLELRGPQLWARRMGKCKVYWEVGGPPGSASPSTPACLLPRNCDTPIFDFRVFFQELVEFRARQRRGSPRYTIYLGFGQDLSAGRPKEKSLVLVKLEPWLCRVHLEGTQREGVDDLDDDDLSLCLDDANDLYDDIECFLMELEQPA
TTAGATTTAAGTATCGATTAGTGCTAG: 0.894 z-score
TCATTTTTTTTCATCATTGCGTGCTAG: 0.999 z-score
TTAGGACTGGACATTGGGTTAGTGCTA: -0.582 z-score
TCATACATGAGTTTAGAACTGTGCTAG: 0.0832 z-score
GACGGTTTCAGGTATCGGGACGTGCTA: 2.04 z-score

Series 3 — technique: RNA Bind-n-Seq; form: RNA; medium: in vitro; concentration: not given; relative to: input RNA pool; direction: higher = stronger binding; quantity: bound/input enrichment
Target: RING finger protein unkempt homolog, zinc fingers 1-6, GST-SBP tag (UNK, Homo sapiens, UniProt Q9C0B0, residues 30-357)
Sequence of UniProt Q9C0B0 (30-357, looked up): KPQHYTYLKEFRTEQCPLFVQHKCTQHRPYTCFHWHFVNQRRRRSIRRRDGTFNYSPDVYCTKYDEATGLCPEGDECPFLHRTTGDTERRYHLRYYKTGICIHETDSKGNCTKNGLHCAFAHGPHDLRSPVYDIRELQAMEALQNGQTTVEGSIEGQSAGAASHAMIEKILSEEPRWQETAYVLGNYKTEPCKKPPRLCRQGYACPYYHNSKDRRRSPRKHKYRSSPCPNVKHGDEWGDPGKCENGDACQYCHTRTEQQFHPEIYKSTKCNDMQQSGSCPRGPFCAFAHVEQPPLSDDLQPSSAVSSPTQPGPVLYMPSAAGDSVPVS
Notes: RNA with constant flanks, human and mouse sites, ends assumed
Constant ends, left off below: GGGAGUUCUACAGUCCGACGAUC … CAACAGAGGAUUGAGCAUCA
GUUCAAGAAGAGCUCCUGAAAGGCUUGGACAAUAAGAAUCCCAAGAUCAUAGUGGCCUGUAUAGAGACACUGAGGAAAGCCUUAAGUGAAUUUGGUUCCAAAAUCAUCUUGCUUAAGCCA: 0.336 ratio
CCUGCCUAAGGCAAAGAAAUAUAAGACAAGACUAUGAUAUCAAUGAAUGUGGGUUAAGUAAUAGAUUUCCAGCUAAAUUGGUCUAAAAAAGAAUAUUAAGUGUGGACAGACCUAUUUCAA: 0.25 ratio
ACUUUCUGCGGGUGGGGGUCACUUUGUGUGCGUGGACUGUGGGAAGAGGUUCAGCUGGUGGUCGUCCCUGAAGAUUCACCAGCGCACACACACAGGUGAGAAGCCUUACCUCUGUGGCAA: 0.251 ratio
AAUGCUAGUGUGAUAAUGCAAGUUCCGGAGAGGAUUGUUGUAGCAGGAAAUAAUGAAGAUGUUUCAUUUUCAAGACCAGCAGAUCUUGACCUUAUUCAGUCAACUCCCUUUAAACCCCUG: 0.21 ratio
UCUGUCAAGAUCAAGAAGAACAAGGAUAAUGUGAAGUUCAAGGUUCGCUGCAGCAGGUACCUUUACACCCUGGUUAUCACAGACAAGGAAAAGGCAGAGAAGCUGAAGCAGUCCCUACCC: 0.102 ratio
CCAUUUGACCCAUUGACCCUGCCAGAGAAGCCCCUGGCUGGAGACCUUCCAGUAGACAUGGAAUUUGGAGAGGAUCUGCUGGAAUCUCAGACUGCCCCAAGUCGAGGAUGGGCUCCCCCA: 0.159 ratio

Series 4 — technique: Sort-seq; measured: YFP reporter; medium: E. coli; notes: PhoQ-PhoP variant library; together with: 10 µM Mg2+; relative to: high Mg2+ state; direction: higher = stronger signaling; quantity: fold induction
Molecule: PhoQ, residues 284 288 289 292 302 303 GNNTDL
PhoP, residues 12 14 15 18 19 HHYTI (Escherichia coli, UniProt P23836): 3.58
PhoP, residues 12 14 15 18 19 SFCSL (Escherichia coli, UniProt P23836): 3.08
PhoP, residues 12 14 15 18 19 AYFRS (Escherichia coli, UniProt P23836): 1.39
